Published values gathered from unrelated publications.
Target: Transporter (Slc6a2, Rattus norvegicus, UniProt Q63380)

With `COC(=O)[C@H]1[C@@H](c2ccc(Cl)c(Cl)c2)C[C@@H]2CC[C@H]1N2CCOCCOCCOCCOCCOCCNC(=O)c1ccc2c(c1)C1(OC2=O)c2ccc(N3CCC3)cc2[Si](C)(C)c2cc(N3CCC3)ccc21` the Ki was 241 nM (ligand displacement, radioligand; cell membranes).
`COc1ccc2[nH]cc(CCNC(C)C)c2c1` has an IC50 of greater than 10000 nM (transporter uptake, inhibitor, radiometric).
The EC50 of `CNC(C)C(=O)c1ccc(Cl)cc1` (stereo not drawn) is reported as 44 nM (substrate release, releaser; rat brain synaptosomes; with: [3H]MPP+).
For `CCNCCc1c[nH]c2ccccc12`, the IC50 was 3860 nM (transporter uptake, inhibitor, radiometric).
With `c1ccc(CCN2CCCCC2)cc1` the Ki was 8830 nM (ligand displacement, radioligand).
`Cc1cccc(C2OCCNC2C)c1` (stereo not drawn) has an IC50 of 5200 nM (inhibitor).
`CCCC(NC)C(=O)c1ccc2c(c1)OCO2` (stereo not drawn) gave an IC50 of 401 nM (transporter uptake, inhibitor, radiometric).
The IC50 of `CN1[C@H]2CC[C@@H]1[C@@H](C(=O)N1CCCC1)[C@@H](c1ccc(I)cc1)C2` is reported as 21 nM (reuptake; rat brain synaptosomes).
`CNC(C)C(=O)c1ccccc1` (stereo not drawn) gave an EC50 of 21 to 25 nM (substrate release, releasing agent; rat brain synaptosomes).
With `CCCN(CCC)CCc1c[nH]c2ccccc12` the IC50 was 3200 nM (transporter uptake, inhibitor, radiometric).
With `CCC[C@H](C(=O)c1ccccc1)N1CCCC1` the IC50 was 181 nM (transporter uptake, inhibitor, radiometric).
`CCN(CC)CCc1c[nH]c2ccc(OC)cc12` has an IC50 of greater than 10000 nM (transporter uptake, inhibitor, radiometric).
`CCC[C@H](C(=O)c1ccc2c(c1)OCO2)N1CCCC1` has an IC50 of 726 nM (transporter uptake, inhibitor, radiometric).
For `COc1ccc2[nH]cc(CCN)c2c1`, the IC50 was greater than 10000 nM (transporter uptake, inhibitor, radiometric).
The EC50 of `CNC(C)C(=O)c1cccc(C)c1` (stereo not drawn) is reported as 27 nM (releaser).

Excerpt of the above:
With `COC(=O)[C@H]1[C@@H](c2ccc(Cl)c(Cl)c2)C[C@@H]2CC[C@H]1N2CCOCCOCCOCCOCCOCCNC(=O)c1ccc2c(c1)C1(OC2=O)c2ccc(N3CCC3)cc2[Si](C)(C)c2cc(N3CCC3)ccc21` the Ki was 241 nM (ligand displacement, radioligand; cell membranes).
